Published values from different studies.
Each line is one published result; not all experiments were run side by side. Converted amounts (≈) assume the structure as drawn.
Organism: Acinetobacter baumannii

SMILES | assay | test system | setting | endpoint | value
CC(C)C[C@H](NC(=O)[C@H](Cc1ccc(O)cc1)NC(=O)[C@@H]1CCCN1C(=O)[C@H](CCCNC(=N)N)NC(=O)[C@@H]1CCCN1C(=O)[C@H](CCCCN)NC(=O)[C@H](CC(=O)O)NC(=O)[C@@H]1CCCN1C(=O)[C@H](CCCNC(=N)N)NC(=O)C1(N)CCCCC1)C(=O)N1CCC[C@H]1C(=O)N[C@@H](CCCNC(=N)N)C(=O)N1CCC[C@H]1C(=O)N[C@@H](CCCNC(=N)N)C(=O)N1CCC[C@H]1C(=O)N1CCC[C@H]1C(=O)N[C@@H](CCCNC(=N)N)C(=O)N1CCC[C@H]1C(=O)N[C@H](C(=O)N[C@@H](CCCNC(=N)N)C(=O)N[C@@H](CSc1c(F)c(F)c(SC[C@H](NC(=O)[C@H](CCCNC(=N)N)NC(=O)[C@@H](NC(=O)[C@@H]2CCCN2C(=O)[C@H](CCCNC(=N)N)NC(=O)[C@@H]2CCCN2C(=O)[C@@H]2CCCN2C(=O)[C@H](CCCNC(=N)N)NC(=O)[C@@H]2CCCN2C(=O)[C@H](CCCNC(=N)N)NC(=O)[C@@H]2CCCN2C(=O)[C@H](CC(C)C)NC(=O)[C@H](Cc2ccc(O)cc2)NC(=O)[C@@H]2CCCN2C(=O)[C@H](CCCNC(=N)N)NC(=O)[C@@H]2CCCN2C(=O)[C@H](CCCCN)NC(=O)[C@H](CC(=O)O)NC(=O)[C@@H]2CCCN2C(=O)[C@H](CCCNC(=N)N)NC(=O)C2(N)CCCCC2)C(C)C)C(=O)NN)c(F)c1F)C(=O)NN)C(C)C | inner membrane permeabilization, PI/SYTO flow cytometry |  | concentration not given, 60 min, 37 °C | PI-positive bacteria | > 80%
O=c1c(O)ccc(Br)cc1O |  | multidrug-resistant |  | MIC80 | ≤ 30 µM
CC(C)C[C@@H]1NC(=O)[C@H](CCCN)NC(=O)[C@H](C(C)C)NC(=O)[C@@H]2CCCN2C(=O)[C@H]2Cc3ccccc3CN2C(=O)[C@H](CC(C)C)NC(=O)[C@H](CCCN)NC(=O)[C@H](C(C)C)NC(=O)[C@@H]2CCCN2C(=O)[C@H]2Cc3ccccc3CN2C1=O | bacterial growth | ATCC 19606 | 24 h, 37 °C | MIC50 | > 40 µM
Oc1ccc(C(F)(F)F)cc1-c1nc2c(Cl)cc(Cl)cc2[nH]1 | colistin potentiator | AB 17978, mcr-1, colistin-resistant | 5 µM | colistin MIC | 0.5 µg/mL
CC[C@H](C)[C@H](NC(=O)[C@H](CCCCN)NC(=O)[C@@H](NC(=O)[C@H](CS)NC(=O)[C@H](CCCNC(=N)N)NC(=O)[C@H](CCCNC(=N)N)NC(=O)[C@H](CC(N)=O)NC(=O)[C@H](CCCNC(=N)N)NC(=O)[C@H](CS)NC(=O)[C@@H](NC(=O)[C@H](CO)NC(=O)[C@@H](NC(=O)[C@H](CS)NC(=O)[C@H](CCCCN)NC(=O)[C@@H](N)CCCNC(=N)N)[C@@H](C)CC)C(C)C)[C@@H](C)CC)C(=O)N[C@@H](CS)C(=O)N[C@@H](CCCNC(=N)N)C(=O)O |  | AB5075, Mueller-Hinton broth with human serum | median, 40% human serum | MBC | 16 µg/mL (≈ 7.59 µM)
CCn1c(-c2ccc(OC)cc2)c(-c2ccc(OC)cc2)n(CC)c1=[Se+][Au-][P+](CC)(CC)CC.Cl | bacterial growth | carbapenem-resistant | 2 h | IC50 | 20 µM
CC(C)C[C@H](NC(=O)[C@H](Cc1ccc(O)cc1)NC(=O)[C@@H]1CCCN1C(=O)[C@H](CCCNC(=N)N)NC(=O)[C@@H]1CCCN1C(=O)[C@H](CCCCN)NC(=O)[C@H](CC(=O)O)NC(=O)[C@@H]1CCCN1C(=O)[C@H](CCCNC(=N)N)NC(=O)C1(N)CCCCC1)C(=O)N1CCC[C@H]1C(=O)N[C@@H](CCCNC(=N)N)C(=O)N1CCC[C@H]1C(=O)N[C@@H](CCCNC(=N)N)C(=O)N1CCC[C@H]1C(=O)N1CCC[C@H]1C(=O)N[C@@H](CCCNC(=N)N)C(=O)N1CCC[C@H]1C(=O)N[C@H](C(=O)N[C@@H](CCCNC(=N)N)C(=O)N[C@@H](CSc1c(F)c(F)c(-c2c(F)c(F)c(SC[C@H](NC(=O)[C@H](CCCNC(=N)N)NC(=O)[C@@H](NC(=O)[C@@H]3CCCN3C(=O)[C@H](CCCNC(=N)N)NC(=O)[C@@H]3CCCN3C(=O)[C@@H]3CCCN3C(=O)[C@H](CCCNC(=N)N)NC(=O)[C@@H]3CCCN3C(=O)[C@H](CCCNC(=N)N)NC(=O)[C@@H]3CCCN3C(=O)[C@H](CC(C)C)NC(=O)[C@H](Cc3ccc(O)cc3)NC(=O)[C@@H]3CCCN3C(=O)[C@H](CCCNC(=N)N)NC(=O)[C@@H]3CCCN3C(=O)[C@H](CCCCN)NC(=O)[C@H](CC(=O)O)NC(=O)[C@@H]3CCCN3C(=O)[C@H](CCCNC(=N)N)NC(=O)C3(N)CCCCC3)C(C)C)C(=O)NN)c(F)c2F)c(F)c1F)C(=O)NN)C(C)C | time-kill |  | 2 × MIC, 1 h | reduction in viable count | 0.68 log CFU/mL
CCn1c(-c2ccc(-c3ccc(F)cc3)cc2)c(-c2ccc(-c3ccc(F)cc3)cc2)n(CC)c1=[Se+][Au-][P+](CC)(CC)CC.[Cl-] | bacterial growth, checkerboard microdilution | carbapenem-resistant | together with: cefotaxime | FIC index | 0.375
Oc1cc(C(F)(F)F)ccc1-c1nc2c(C(F)(F)F)cc(C(F)(F)F)cc2[nH]1 | colistin potentiator | AB 17978, mcr-1, colistin-resistant | 5 µM | colistin MIC | 0.5 µg/mL
CC(C)[C@H](N)C(=O)N[C@H]1CSSC[C@@H](C(=O)N[C@H](C(N)=O)C(C)C)NC(=O)[C@H](Cc2c[nH]c3ccccc23)NC(=O)[C@H](CCCCN)NC(=O)[C@H](CCCCN)NC(=O)[C@H](Cc2c[nH]c3ccccc23)NC(=O)[C@H](CCCCN)NC(=O)[C@H](CCCNC(=N)N)NC(=O)[C@H](CCCCN)NC(=O)[C@H](Cc2c[nH]c3ccccc23)NC(=O)[C@H](CCCCN)NC(=O)[C@H](CCCCN)NC(=O)[C@H](Cc2c[nH]c3ccccc23)NC(=O)[C@H](CCCNC(=N)N)NC(=O)[C@H](CCCCN)NC1=O |  | 22933 | 1 x MIC, 37 °C | time to complete killing | ≤ 30 min

For quick reference, copied from above:
SMILES | assay | test system | setting | endpoint | value
CC(C)[C@H](N)C(=O)N[C@H]1CSSC[C@@H](C(=O)N[C@H](C(N)=O)C(C)C)NC(=O)[C@H](Cc2c[nH]c3ccccc23)NC(=O)[C@H](CCCCN)NC(=O)[C@H](CCCCN)NC(=O)[C@H](Cc2c[nH]c3ccccc23)NC(=O)[C@H](CCCCN)NC(=O)[C@H](CCCNC(=N)N)NC(=O)[C@H](CCCCN)NC(=O)[C@H](Cc2c[nH]c3ccccc23)NC(=O)[C@H](CCCCN)NC(=O)[C@H](CCCCN)NC(=O)[C@H](Cc2c[nH]c3ccccc23)NC(=O)[C@H](CCCNC(=N)N)NC(=O)[C@H](CCCCN)NC1=O |  | 22933 | 1 x MIC, 37 °C | time to complete killing | ≤ 30 min
